Measurements collected from several papers.
Lines come from different studies, so protocols differ. Numbers after ± are the reported error.

| SMILES | test | system | conditions | quantity | value |
| --- | --- | --- | --- | --- | --- |
| O=C(O)/C=C/c1ccc(O)c(O[C@@H]2O[C@H](C(=O)O)[C@@H](O)[C@H](O)[C@H]2O)c1 | – | human plasma | mean | plasma concentration | 18.7 nM |
| O=C1CCc2ccc(OCCCCN3CCN(c4cccc(Cl)c4Cl)CC3)cc2N1 | – | patients, plasma, steady state | oral or long-acting depot injection, dose not given, CYP2D6 IM, median | plasma concentration | 173 ng/mL |
| CC(=O)N1CCN(c2ccc(OCC3COC(Cn4ccnc4)(c4ccc(Cl)cc4Cl)O3)cc2)CC1 (centres unmarked) | – | mouse plasma | 1 µM, 6 h, 37 °C | plasma stability | 88.8% |
| COc1ccccc1OCC(O)CN1CCN(CC(=O)Nc2c(C)cccc2C)CC1 (centres unmarked) | – | human, plasma | oral, 12 mg/kg/day every 6 h, 1 h post-dose | plasma concentration | 1300 ng/mL |
| CC(C)NCC(O)COc1cccc2ccccc12 (centres unmarked) | rapid equilibrium dialysis | human plasma | 4 h | plasma protein binding | 77.6 ± 0.9% |
| O=c1c2cc(Cl)ccc2[nH]c(=S)n1Cc1cccnc1 | – | mouse plasma | concentration not given | plasma stability | 95 to 98.7% |
| CCNCCCn1c2c(c3cc(OC)c(OC)cc3c1=O)C(=O)c1cc3c(nc1-2)OCO3 | – | mouse plasma | 1 µM, 6 h, 37 °C | plasma stability | 86.6% |
| O=C(CCCCCCC(=O)Nc1ccccc1)NO | – | human plasma | – | plasma stability | stable |
| O=C(O)CNC(=O)c1ccccc1O | – | human plasma | median | plasma concentration | 284 nM |
| C[C@@H](O)[C@H](NC(=O)[C@H](Cc1ccc(O)cc1)NC(=O)[C@H](Cc1ccc(O)cc1)NC(=O)[C@H](CO)NC(=O)[C@H](CCCNC(=N)N)NC(=O)[C@H](Cc1c[nH]cn1)NC(=O)[C@@H](N)Cc1c[nH]c2ccccc12)C(=O)N[C@@H](Cc1c[nH]c2ccccc12)C(=O)N[C@@H](CC(N)=O)C(=O)NCCCC[C@H](NC(=O)[C@H](CC(N)=O)NC(=O)[C@H](Cc1c[nH]c2ccccc12)NC(=O)[C@@H](NC(=O)[C@H](Cc1ccc(O)cc1)NC(=O)[C@H](Cc1ccc(O)cc1)NC(=O)[C@H](CO)NC(=O)[C@H](CCCNC(=N)N)NC(=O)[C@H](Cc1c[nH]cn1)NC(=O)[C@@H](N)Cc1c[nH]c2ccccc12)[C@@H](C)O)C(N)=O | – | human serum albumin | – | plasma protein binding | 93% |
| COc1cc2c3c(n(CCCNCCO)c(=O)c2cc1OC)-c1nc2c(cc1C3=O)OCO2 | – | human plasma | 1 µM, 6 h, 37 °C | plasma stability | 95.4% |
| C[C@H](CCC(=O)NCC(=O)O)[C@H]1CC[C@H]2[C@@H]3[C@H](O)C[C@@H]4C[C@H](O)CC[C@]4(C)[C@H]3CC[C@]12C | – | women, T/T genotype, plasma | dose not given, geometric mean | plasma concentration | 401 ng/mL |
| COc1cc2c3c(n(CCCNC(C)C)c(=O)c2cc1OC)-c1nc2c(cc1C3=O)OCO2 | – | mouse plasma | 1 µM, 6 h, 37 °C | plasma stability | 92.6% |
| OCCOCc1ccc(-c2noc(-c3ccc(OCC[18F])c(C(F)(F)F)c3)n2)cc1 | ultrafiltration | Macaca mulatta, plasma | added: ponesimod 0.063 mg/kg | plasma free fraction | 0.61% |
| OC[C@H](Cc1cccc(O)c1)[C@H](CO)Cc1cccc(O)c1 | – | human plasma | median, both sexes | plasma concentration | 826 nM |
| Cl.N=C(CC(O)c1cc2c(F)cc(F)cc2c2cc(C(F)(F)F)ccc12)Nc1ccc(F)c(F)c1 (centres unmarked) | – | human plasma | 2.5 and 50 ng/mL | plasma half-life | 51 to 65 h |
| O=C(O)CCc1ccc(O)c(O)c1 | – | human plasma | median | plasma concentration | 232 nM |
| CC(C)C[C@H](NC(=O)[C@@H](Cc1c[nH]c2ccccc12)NC(=O)[C@H](Cc1ccc(O)cc1)NC(=O)[C@H](CO)NC(=O)[C@H](Cc1c[nH]c2ccccc12)NC(=O)[C@H](Cc1c[nH]cn1)NC(=O)[C@@H]1CCC(=O)N1)C(=O)N[C@@H](CCCNC(=N)N)C(=O)N1CCC[C@H]1C(=O)NCC(N)=O | – | Chinese children, precocious puberty, plasma | intramuscular, 22.5 mg, 4320 h, pre-dose second injection, mean | plasma concentration | 0.599 ng/mL |
| O=S(=O)(O)Oc1cccc(O)c1O | – | human plasma | median | plasma concentration | 917 nM |
| C[C@H](CCC(=O)NCC(=O)O)[C@H]1CC[C@H]2[C@@H]3CC[C@@H]4C[C@H](O)CC[C@]4(C)[C@H]3C[C@H](O)[C@]12C | – | men, T/C genotype, plasma | dose not given, geometric mean | plasma concentration | 133 ng/mL |
| O=C(O)c1cccc(O)c1 | – | human plasma | median, both sexes | plasma concentration | 1740 nM |
| Cc1cc(Nc2ccc(S(F)(F)(F)(F)F)cc2)n2ccnc2n1 | – | diluted mouse plasma | 2 µM, 6 h | plasma stability | 100 % remaining |
| COc1ccc(C(=O)O)cc1OS(=O)(=O)O | – | human plasma | median | plasma concentration | 2260 nM |
| C=CC(=O)N1CCC([C@@H]2CCNc3c(C(N)=O)c(-c4ccc(Oc5ccccc5)cc4)nn32)CC1 | – | human K2EDTA plasma | – | plasma stability freeze-thaw cycles | ≤ 5 freeze-thaw cycles |
| O=C(O)[C@H]1O[C@@H](Oc2cc(O)c3c(=O)c(O)c(-c4ccc(O)c(O)c4)oc3c2)[C@H](O)[C@@H](O)[C@@H]1O | – | human plasma | median | plasma concentration | 542 nM |
| Cc1ccc2[nH]c(=S)n(Cc3cccnc3)c(=O)c2c1 | – | mouse plasma | concentration not given | plasma stability | 95 to 98.7% |

Excerpt of the above:
| SMILES | test | system | conditions | quantity | value |
| --- | --- | --- | --- | --- | --- |
| CC(=O)N1CCN(c2ccc(OCC3COC(Cn4ccnc4)(c4ccc(Cl)cc4Cl)O3)cc2)CC1 (centres unmarked) | – | mouse plasma | 1 µM, 6 h, 37 °C | plasma stability | 88.8% |
| COc1ccccc1OCC(O)CN1CCN(CC(=O)Nc2c(C)cccc2C)CC1 (centres unmarked) | – | human, plasma | oral, 12 mg/kg/day every 6 h, 1 h post-dose | plasma concentration | 1300 ng/mL |
| CC(C)NCC(O)COc1cccc2ccccc12 (centres unmarked) | rapid equilibrium dialysis | human plasma | 4 h | plasma protein binding | 77.6 ± 0.9% |
